Measurements of several laboratories.
Each line is one published result; not all experiments were run side by side. Numbers after ± are the reported error.

O=C(c1cccc2ccccc12)c1cn(CCCCCF)c2ccccc12: “lowest dose with significant effect” 0.1 to 1 mg/kg (handling reactivity, functional observational battery; ICR mice, male; iv; baseline: vehicle).
For CC[C@@H]1CN2CC[C@]3(Nc4cccc(OC)c4C3=O)[C@@H]2C[C@@H]1/C(=C\OC)C(=O)OC, antinociception read “decreased” (tail withdrawal; MOR knockout mouse C57BL/6J; subcutaneous, 3 mg/kg; baseline: wild type).
With CCCNCCc1c[nH]c2cccc(O)c12.CCCNCCc1c[nH]c2cccc(O)c12.O=C(O)/C=C/C(=O)O the ED50 was 2.9 to 3.3 mg/kg (head twitch response; C57BL/6J mice; subcutaneous, 30 min session).
C[C@H](Cn1cnc2c(N)ncnc21)OCP(=O)(O)O has an inhibition of 100% (human alphaherpesvirus 2; virus production; human monocytes/macrophages; 100 µg/mL, 6 days).
Under “ultrasonic vocalisation duration”, NC(=O)C[S+]([O-])C(c1ccccc1)c1ccccc1 (racemic) is recorded as “inhibited” (mouse, C57BL/6, female, EAE; dose not given, day 24, together with: noxious paw pressure; baseline: vehicle).
C[C@H]1CNCCc2ccc(Cl)cc21 gave a plasma concentration of 15.6 ± 0.76 ng/mL (Sprague-Dawley rat, male, plasma; subcutaneous, 0.5 mg/kg, 15 min).
N=C(N)c1ccc(-c2ccc(-c3ccco3)o2)cc1F has a mutant frequency of 30% (Salmonella enterica; TA1535; 20 µM, 48 h, together with: sodium azide after pre-exposure; baseline: sodium azide alone).
CCC1(c2ccccc2)C(=O)NC(=O)NC1=O — result for “minimal effective dose”: 30 mg/kg (seizure protection; albino mouse, scPTZ-induced seizure; ip, 0.5 h).
Under “lowest dose with significant effect”, CCCCCn1cc(C(=O)c2ccc(OC)c3ccccc23)c2ccccc21 is recorded as 1 mg/kg (handling reactivity, functional observational battery; ICR mice, male; iv; baseline: vehicle).
CC[C@@H](C(N)=O)N1CCCC1=O gave a seizure-free animals of 50% (hyperthermia-induced seizures; Scn1a+/- mouse; intraperitoneal, 10 mg/kg).
For CCCCCc1cc(O)c2c(c1)OC(C)(C)[C@@H]1CCC(C)=C[C@@H]21, “onset of locomotor depression” read 10 to 20 min (male ND4 Swiss-Webster mice; intraperitoneal, 10 and 25 mg/kg).
COC(=O)[C@H]1[C@@H](OC(=O)c2ccccc2)C[C@@H]2CC[C@H]1N2C — result for “extracellular dopamine level”: 165% (in vivo microdialysis; rat, nucleus accumbens shell; intraperitoneal, 3.0 mg/kg, 0 to 30 min after dosing, mean over place-conditioning session; baseline: baseline).
Under “open arm time and entries”, CN1C(=O)CN=C(c2ccccc2)c2cc(Cl)ccc21 is recorded as “increased” (elevated plus maze; CD-1 mice; i.p., 1 mg/kg, 30 min before test; baseline: vehicle).
The tissue/plasma ratio of [123I]c1cncc(OC[C@@H]2CCN2)c1 is reported as 27.9 (SPECT; human, frontal lobe; intravenous bolus plus infusion, 7.7 mCi; baseline: tissue over plasma).
With NC1(c2ccccc2Cl)CCC=CC1=O (centres unmarked) the Vmax was 469 pmol/min/mg protein (metabolite formation, metabolite; pooled human liver microsomes; 30 min, 37 °C, together with: (R)-norketamine substrate).
Under “onset of locomotor depression”, CCCCCn1cc(C(=O)c2ccc(C)c3ccccc23)c2ccccc21 is recorded as ≤ 40 min (male ND4 Swiss-Webster mice; intraperitoneal, 0.5 and 1 mg/kg).
The tracer uptake of CN[C@@](C)(C[18F])C(=O)O is reported as 1.9 %ID/g (MDA-MB-468 tumour model; host not given, bone; 2 h, tumour-bearing).
For CCCCCc1cc(O)c2c(c1)OC(C)(C)[C@@H]1CCC(C)=C[C@@H]21, “lowest dose with significant effect” read 1 mg/kg (handling reactivity, functional observational battery; ICR mice, male; iv; baseline: vehicle).
With COc1ccc2cc3[n+](cc2c1OC)CCc1cc2c(cc1-3)OCO2 the SOD activity was 7.41 ± 0.59 U/mg protein (rat, STZ-induced diabetic, liver; oral, 12 mg/kg, day 28).
CNC(C)Cc1ccc2c(c1)OCO2 (racemic) has a mood rating of 36.3 (visual analog scale, item: Stimulated; human; oral, 1.5 mg/kg, mean over session, unit not given; baseline: pre-dose baseline).
`opicalcin 1` has a survival rate of > 80% (ICR mice, caffeine-epinephrine acute heart failure; intravenous, 5 mg/kg, 30 min, together with: caffeine 120 mg/kg and epinephrine 2 mg/kg).
For CCC1(c2ccccc2)C(=O)NC(=O)NC1=O, the seizure-free animals was 100% (hyperthermia-induced seizures; Scn1a+/- mouse; intraperitoneal, 15 mg/kg).
Under “onset of locomotor depression”, CCCCCn1cc(C(=O)NC(C(N)=O)C(C)(C)C)c2ccccc21 (centres unmarked) is recorded as ≤ 10 min (male ND4 Swiss-Webster mice; intraperitoneal, 0.5 to 2.5 mg/kg).
The IC50 of CC(C)c1ccc2c(c1)CC[C@H]1[C@](C)(CN)CCC[C@]21C is reported as 3.72 µM (SBcl2; cell growth or viability, MTS; 72 h).
CP(=O)(O)CCC(N)C(=O)O (centres unmarked) gave a herbicidal activity of 50% (Ipomoea hederacea; 125 g/ha, 13 days, IPOHE, post-emergence spray; baseline: untreated (0%), complete kill (100%)).
CCCCCc1cc(O)c2c(c1)OC(C)(C)[C@@H]1CCC(C)=C[C@@H]21 gave an ED50 of 1.9 mg/kg (drug discrimination; C57BL/6J mice, male; intraperitoneal, first dose-effect curve).
CN1CC[C@]23c4c5ccc(O)c4O[C@H]2[C@@H](O)C=C[C@H]3[C@H]1C5 gave a paw-withdrawal latency of 13.1 ± 2.5 s (thermal hyperalgesia; Sprague-Dawley rat, male, incisional pain; subcutaneous, 5 mg/kg, 2 h).
N=C(N)c1ccc(-c2ccc(-c3cccs3)o2)cc1F has an inhibition of 109% (Salmonella enterica; sodium azide mutagenicity; TA1535; 20 µM, 48 h, together with: sodium azide 2 µg/plate co-exposure).
For Cc1ccc(/C=C/C(=O)N[C@@]23CCC(=O)[C@@H]4Oc5c(O)ccc6c5[C@@]42CCN(CC2CC2)[C@@H]3C6)cc1, “paw withdrawal latency” read “no effect” (rat; intraplantar, 0.25 µg/50 µL).

Some of these lines once more:
O=C(c1cccc2ccccc12)c1cn(CCCCCF)c2ccccc12: “lowest dose with significant effect” 0.1 to 1 mg/kg (handling reactivity, functional observational battery; ICR mice, male; iv; baseline: vehicle).
Under “lowest dose with significant effect”, CCCCCn1cc(C(=O)c2ccc(OC)c3ccccc23)c2ccccc21 is recorded as 1 mg/kg (handling reactivity, functional observational battery; ICR mice, male; iv; baseline: vehicle).
For CCCCCc1cc(O)c2c(c1)OC(C)(C)[C@@H]1CCC(C)=C[C@@H]21, “lowest dose with significant effect” read 1 mg/kg (handling reactivity, functional observational battery; ICR mice, male; iv; baseline: vehicle).
